Measured values collected from several papers.
Numbers after ± are the reported error.
Organism: Escherichia coli

| Molecule | assay | test system | conditions | MIC |
| --- | --- | --- | --- | --- |
| CC[C@H](C)[C@H](NC(=O)CN)C(=O)N[C@@H](CCCCN)C(=O)N[C@H](C(=O)N[C@@H](CCCNC(=N)N)C(=O)N[C@@H](CCCCN)C(=O)N[C@@H](CC(C)C)C(=O)N[C@@H](Cc1ccccc1)C(=O)N[C@@H](CCCCN)C(=O)N[C@@H](CCCCN)C(=O)N[C@@H](CC(C)C)C(=O)N[C@@H](CC(C)C)C(=O)N[C@@H](CCCNC(=N)N)C(N)=O)[C@@H](C)CC |  | ATCC 25922 | 1 h, 37 °C, dividing cells in LB | 50 µg/mL |
| CC[C@H](C)[C@H](NC(=O)[C@@H]1CCCN1C(=O)[C@H](CCCNC(=N)N)NC(=O)[C@@H]1CCCN1C(=O)[C@H](Cc1c[nH]cn1)NC(=O)[C@H](CO)NC(=O)[C@@H](NC(=O)[C@@H]1CCCN1C(=O)[C@H](CCCNC(=N)N)NC(=O)[C@@H]1CCCN1C(=O)[C@H](CO)NC(=O)[C@H](Cc1ccc(O)cc1)NC(=O)[C@@H]1CCCN1C(=O)[C@H](CCCNC(=N)N)NC(=O)[C@@H]1CCCN1C(=O)[C@H](CCCCN)NC(=O)CN)[C@@H](C)O)C(=O)N[C@@H](CCCNC(=N)N)C(=O)N[C@H](C(=O)O)C(C)C | broth microdilution | K12 | 37 °C | > 100 µM |
| CC[C@H](C)[C@H](NC(=O)[C@H](CCCNC(=N)N)NC(=O)[C@@H](N)CCCNC(=N)N)C(=O)N[C@@H](CCCCN)C(=O)N[C@@H](CCCCN)C(=O)N[C@@H](CCCNC(=N)N)C(=O)N1CCC[C@H]1C(=O)N1CCC[C@H]1C(=O)N[C@@H](CCCNC(=N)N)C(=O)N[C@@H](CC(C)C)C(=O)N1CCC[C@H]1C(=O)N[C@@H](CCCNC(=N)N)C(=O)N1CCC[C@H]1C(=O)N[C@@H](CCCNC(=N)N)C(=O)N1CCC[C@H]1C(=O)N[C@@H](CCCNC(=N)N)C(=O)O | broth microdilution | BW25113 parental, Mueller-Hinton broth | 18 h, 37 °C | 0.078 ± 0.032 µM |
| CC(C)C[C@H](NC(=O)[C@H](CCCNC(=N)N)NC(=O)[C@H](C)NC(=O)[C@@H](NC(=O)[C@H](CC(C)C)NC(=O)[C@H](Cc1c[nH]cn1)NC(=O)[C@H](CC(C)C)NC(=O)[C@@H](NC(=O)[C@@H](N)CO)[C@@H](C)O)C(C)C)C(=O)N[C@@H](CCCNC(=N)N)C(=O)NCC(=O)NCC(=O)O |  | DH5α | 37 °C, ≥90% viability decrease | > 100 µM |
| CC[C@H](C)[C@H](NC(=O)[C@H](CCCNC(=N)N)NC(=O)[C@@H](N)CCCNC(=N)N)C(=O)N[C@@H](CCCNC(=N)N)C(=O)N[C@@H](Cc1ccccc1)C(=O)N[C@@H](CCCNC(=N)N)C(=O)N1CCC[C@H]1C(=O)N1CCC[C@H]1C(=O)N[C@@H](Cc1ccc(O)cc1)C(=O)N[C@@H](CC(C)C)C(=O)N1CCC[C@H]1C(=O)N[C@@H](CCCNC(=N)N)C(=O)N1CCC[C@H]1C(=O)NCC(=O)N[C@@H](CCCNC(=N)N)C(=O)N[C@@H](CCCNC(=N)N)C(N)=O | broth microdilution | BW25113 wild type, Mueller-Hinton broth | overnight, 37 °C | 4 µM |
| CC[C@H](C)[C@H](N)C(=O)N[C@@H](CCCCN)C(=O)N[C@@H](Cc1c[nH]c2ccccc12)C(=O)N[C@@H](CCCCN)C(=O)N[C@@H](CCCCN)C(=O)N[C@@H](CC(C)C)C(=O)N[C@@H](CC(C)C)C(=O)N[C@@H](CCCNC(=N)N)C(=O)N[C@@H](C)C(=O)N[C@@H](C)C(=O)N[C@@H](CCCCN)C(=O)N[C@@H](CCCNC(=N)N)C(=O)N[C@H](C(=O)N[C@@H](CC(C)C)C(N)=O)[C@@H](C)CC | broth microdilution | K12 | 37 °C | 3.1 µM |
| CC[C@H](C)[C@H](NC(=O)[C@H](Cc1c[nH]c2ccccc12)NC(=O)[C@@H](N)CCCNC(=N)N)C(=O)N[C@@H](CCCNC(=N)N)C(=O)N[C@@H](Cc1c[nH]c2ccccc12)C(=O)N[C@H](C(=O)N[C@@H](Cc1c[nH]c2ccccc12)C(=O)N[C@@H](CCCNC(=N)N)C(=O)N[C@@H](CCCCN)C(=O)N[C@@H](CCCCN)C(=O)N[C@@H](CC(C)C)C(=O)N[C@@H](CCCNC(=N)N)C(N)=O)C(C)C | broth microdilution | ATCC 25922, LB medium | 16 to 20 h, 37 °C | 25 to 50 µg/mL |
| CC[C@H](C)[C@H](NC(=O)[C@@H]1CCCN1C(=O)[C@H](CCCCN)NC(=O)[C@@H]1CCCN1C(=O)[C@@H]1CCCN1C(=O)[C@@H](NC(=O)[C@@H]1CCCN1C(=O)[C@H](CCCNC(=N)N)NC(=O)[C@@H]1CCCN1C(=O)[C@H](CCCCN)NC(=O)[C@H](Cc1ccc(O)cc1)NC(=O)[C@H](CO)NC(=O)CNC(=O)[C@H](CCCCN)NC(=O)[C@H](CC(=O)O)NC(=O)[C@@H](N)C(C)C)[C@@H](C)O)C(=O)N[C@@H](Cc1ccc(O)cc1)C(=O)N[C@@H](CC(N)=O)C(=O)N[C@@H](CCCNC(=N)N)C(=O)N[C@@H](CC(N)=O)C(=O)O |  | JW0013 | 18 h, 37 °C, 12.5% Mueller-Hinton broth | 0.075 ± 0.018 µM |
| C[C@H](N)C(=O)N[C@@H](CS)C(=O)N1CCC[C@H]1C(=O)N[C@@H](Cc1c[nH]cn1)C(=O)N[C@@H](CCCNC(=N)N)C(=O)N[C@@H](CS)C(=O)O | broth microdilution | MTCC 443 | 37 °C | 45 µg/mL |
| CC[C@H](C)[C@H](NC(=O)CN)C(=O)N[C@@H](CCCCN)C(=O)N[C@@H](Cc1ccccc1)C(=O)N[C@@H](Cc1ccccc1)C(=O)N[C@@H](CC(C)C)C(=O)N[C@@H](CCCCN)C(=O)N[C@@H](CCCCN)C(=O)N[C@@H](CC(C)C)C(=O)N[C@@H](CCCCN)C(=O)N[C@@H](CCCCN)C(=O)N[C@@H](Cc1c[nH]cn1)C(N)=O |  | ATCC 25922 | 1 h, 37 °C, non-dividing cells in PBS | 50 to 100 µg/mL |
| CC(C)C[C@H](NC(=O)[C@H](C)NC(=O)CNC(=O)[C@@H](NC(=O)[C@H](CC(C)C)NC(=O)[C@H](CCCCN)NC(=O)[C@H](CCCCN)NC(=O)[C@H](CC(C)C)NC(=O)[C@H](CC(C)C)NC(=O)[C@H](CCCCN)NC(=O)[C@H](CC(C)C)NC(=O)[C@H](CC(C)C)NC(=O)[C@@H](N)CCCCN)C(C)C)C(=O)NCC(N)=O |  | ATCC 25922, CAMHB | 18 h, 37 °C | 3 µM |
| CC[C@H](C)[C@H](NC(=O)[C@@H]1CCCN1C(=O)[C@H](CCCCN)NC(=O)[C@@H]1CCCN1C(=O)[C@@H]1CCCN1C(=O)[C@@H](NC(=O)[C@@H]1CCCN1C(=O)[C@H](CCCNC(=N)N)NC(=O)[C@@H]1CCCN1C(=O)[C@H](CCCNC(=N)N)NC(=O)[C@H](Cc1ccc(O)cc1)NC(=O)[C@H](CO)NC(=O)CNC(=O)[C@H](CCCCN)NC(=O)[C@H](CC(=O)O)NC(=O)[C@@H](N)C(C)C)[C@@H](C)O)C(=O)N[C@@H](Cc1ccc(O)cc1)C(=O)N[C@@H](CC(N)=O)C(=O)N[C@@H](CCCNC(=N)N)C(=O)N[C@@H](CC(N)=O)C(=O)O | broth microdilution | BW25113 parental, Mueller-Hinton broth | 18 h, 37 °C | 0.037 ± 0.008 µM |
| CC[C@H](C)[C@H](NC(=O)[C@H](CCCNC(=N)N)NC(=O)[C@H](CC(C)C)NC(=O)[C@H](CCC(N)=O)NC(=O)[C@H](CCCCN)NC(=O)[C@H](CC(C)C)NC(=O)[C@H](CC(C)C)NC(=O)[C@H](CC(C)C)NC(=O)[C@@H](NC(=O)[C@H](CCCCN)NC(=O)[C@H](CC(=O)O)NC(=O)[C@H](C)NC(=O)[C@@H](NC(=O)[C@H](CCCCN)NC(=O)[C@H](CCCCN)NC(=O)[C@H](CC(=O)O)NC(=O)[C@@H](NC(=O)[C@@H](N)Cc1c[nH]cn1)C(C)C)C(C)C)C(C)C)C(=O)N[C@@H](CCSC)C(=O)N[C@@H](CCCNC(=N)N)C(=O)N[C@@H](CC(C)C)C(=O)N[C@@H](CC(C)C)C(=O)N[C@H](C(=O)N[C@@H](CCCNC(=N)N)C(=O)N[C@@H](CC(C)C)C(=O)O)[C@@H](C)O | broth microdilution | K12 | 37 °C | > 81 µM |
| CC(C)C[C@H](NC(=O)CN)C(=O)N[C@@H](Cc1ccccc1)C(=O)N[C@@H](CCCCN)C(=O)N[C@@H](CC(C)C)C(=O)N[C@@H](CC(C)C)C(=O)N[C@@H](CCCCN)C(=O)N[C@@H](CCCCN)C(=O)N[C@@H](CC(C)C)C(=O)N[C@@H](CC(C)C)C(=O)N[C@@H](CCCCN)C(=O)N[C@@H](CC(C)C)C(=O)N[C@@H](CC(C)C)C(=O)N[C@@H](CCCCN)C(N)=O |  | ATCC 25922, CAMHB | 18 h, 37 °C | > 20 µM |
| CC[C@H](C)[C@H](NC(=O)[C@H](CCCNC(=N)N)NC(=O)[C@@H](N)CCCNC(=N)N)C(=O)N[C@@H](CCCCN)C(=O)N1CCC[C@H]1C(=O)N[C@@H](CCCNC(=N)N)C(=O)N1CCC[C@H]1C(=O)N1CCC[C@H]1C(=O)N[C@@H](CCCNC(=N)N)C(=O)N[C@@H](CC(C)C)C(=O)N1CCC[C@H]1C(=O)N[C@@H](CCCNC(=N)N)C(=O)N1CCC[C@H]1C(=O)N[C@@H](CCCNC(=N)N)C(=O)N1CCC[C@H]1C(=O)N[C@@H](CCCCN)C(=O)O |  | JW0368 ΔsbmA | 18 h, 37 °C, 12.5% Mueller-Hinton broth | 0.06 ± 0.014 µM |
| PACAP(6-38) |  | ATCC 25922 |  | 1.36 µM |
| CC[C@H](C)[C@H](NC(=O)[C@@H]1CCCN1C(=O)[C@H](CCCNC(=N)N)NC(=O)[C@@H]1CCCN1C(=O)[C@@H]1CCCN1C(=O)[C@@H](NC(=O)[C@@H]1CCCN1C(=O)[C@H](CCCNC(=N)N)NC(=O)[C@@H]1CCCN1C(=O)[C@H](CC(C)C)NC(=O)[C@H](Cc1ccc(O)cc1)NC(=O)[C@H](CO)NC(=O)CNC(=O)[C@H](CCCCN)NC(=O)[C@H](CC(=O)O)NC(=O)[C@@H](N)C(C)C)[C@@H](C)O)C(=O)N[C@@H](Cc1ccc(O)cc1)C(=O)N[C@@H](CC(N)=O)C(=O)N[C@@H](CCCNC(=N)N)C(=O)N[C@@H](CC(N)=O)C(=O)O | broth microdilution | BW25113, 20% M9 medium |  | > 0.6 µM |
| CC[C@H](C)[C@H](NC(=O)CNC(=O)[C@H](CC(=O)O)NC(=O)[C@H](CCCNC(=N)N)NC(=O)[C@@H](NC(=O)[C@H](CC(N)=O)NC(=O)[C@H](CCC(N)=O)NC(=O)CNC(=O)[C@@H](NC(=O)[C@H](CCCCN)NC(=O)[C@H](CCC(=O)O)NC(=O)[C@@H](NC(=O)[C@H](CCCCN)NC(=O)[C@H](CCCCN)NC(=O)[C@H](Cc1ccccc1)NC(=O)[C@H](CC(C)C)NC(=O)[C@H](CCCCN)NC(=O)[C@H](Cc1c[nH]c2ccccc12)NC(=O)[C@@H](N)CCCCN)[C@@H](C)CC)C(C)C)[C@@H](C)CC)C(=O)N[C@H](C(=O)N[C@@H](CCCCN)C(=O)N[C@@H](C)C(=O)NCC(=O)N1CCC[C@H]1C(=O)N[C@@H](C)C(=O)N[C@H](C(=O)N[C@@H](C)C(=O)N[C@H](C(=O)N[C@H](C(=O)NCC(=O)N[C@@H](CCC(N)=O)C(=O)N[C@@H](C)C(=O)N[C@H](C(=O)N[C@@H](CCC(N)=O)C(=O)N[C@H](C(=O)N[C@@H](C)C(=O)N[C@@H](CCCCN)C(N)=O)[C@@H](C)CC)[C@@H](C)O)C(C)C)C(C)C)C(C)C)[C@@H](C)CC | bacterial growth | DH5α | 37 °C | 3 µM |

Some of these lines once more:
| Molecule | assay | test system | conditions | MIC |
| --- | --- | --- | --- | --- |
| PACAP(6-38) |  | ATCC 25922 |  | 1.36 µM |
| CC[C@H](C)[C@H](NC(=O)CN)C(=O)N[C@@H](CCCCN)C(=O)N[C@H](C(=O)N[C@@H](CCCNC(=N)N)C(=O)N[C@@H](CCCCN)C(=O)N[C@@H](CC(C)C)C(=O)N[C@@H](Cc1ccccc1)C(=O)N[C@@H](CCCCN)C(=O)N[C@@H](CCCCN)C(=O)N[C@@H](CC(C)C)C(=O)N[C@@H](CC(C)C)C(=O)N[C@@H](CCCNC(=N)N)C(N)=O)[C@@H](C)CC |  | ATCC 25922 | 1 h, 37 °C, dividing cells in LB | 50 µg/mL |
